Measurements collected from several papers.
Parts stem from different laboratories: compare values within a part only.
Sequence of UniProt P07949 (whole entry, unmodified, looked up): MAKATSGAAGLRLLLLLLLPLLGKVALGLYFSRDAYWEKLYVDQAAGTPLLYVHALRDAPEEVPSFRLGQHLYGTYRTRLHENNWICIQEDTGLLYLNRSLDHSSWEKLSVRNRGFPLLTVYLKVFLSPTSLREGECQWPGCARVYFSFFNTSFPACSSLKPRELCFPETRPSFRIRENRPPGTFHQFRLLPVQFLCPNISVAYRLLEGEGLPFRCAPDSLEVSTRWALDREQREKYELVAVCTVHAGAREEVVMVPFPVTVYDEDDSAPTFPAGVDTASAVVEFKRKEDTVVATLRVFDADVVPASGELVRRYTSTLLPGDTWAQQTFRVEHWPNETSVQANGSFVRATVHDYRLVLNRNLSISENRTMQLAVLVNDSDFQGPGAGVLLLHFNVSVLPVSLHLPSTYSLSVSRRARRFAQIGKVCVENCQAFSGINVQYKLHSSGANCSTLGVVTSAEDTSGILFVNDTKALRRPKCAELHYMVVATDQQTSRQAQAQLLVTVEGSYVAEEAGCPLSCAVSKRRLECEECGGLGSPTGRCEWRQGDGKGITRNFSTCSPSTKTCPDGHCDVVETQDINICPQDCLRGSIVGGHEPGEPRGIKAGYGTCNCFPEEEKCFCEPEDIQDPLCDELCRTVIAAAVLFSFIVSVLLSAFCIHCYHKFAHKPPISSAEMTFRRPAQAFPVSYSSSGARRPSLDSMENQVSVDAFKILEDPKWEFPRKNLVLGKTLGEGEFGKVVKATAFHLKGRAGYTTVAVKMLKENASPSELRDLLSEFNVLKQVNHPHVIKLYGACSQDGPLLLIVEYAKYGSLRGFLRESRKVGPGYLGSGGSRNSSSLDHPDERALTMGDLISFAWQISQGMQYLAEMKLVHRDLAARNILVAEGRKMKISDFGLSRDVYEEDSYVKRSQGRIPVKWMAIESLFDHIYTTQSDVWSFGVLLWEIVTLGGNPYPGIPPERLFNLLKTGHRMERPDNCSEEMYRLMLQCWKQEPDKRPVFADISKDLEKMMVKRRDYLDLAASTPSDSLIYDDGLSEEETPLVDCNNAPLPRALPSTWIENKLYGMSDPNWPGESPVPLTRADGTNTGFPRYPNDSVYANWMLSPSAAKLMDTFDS
Sequence of UniProt P36894 (whole entry, looked up): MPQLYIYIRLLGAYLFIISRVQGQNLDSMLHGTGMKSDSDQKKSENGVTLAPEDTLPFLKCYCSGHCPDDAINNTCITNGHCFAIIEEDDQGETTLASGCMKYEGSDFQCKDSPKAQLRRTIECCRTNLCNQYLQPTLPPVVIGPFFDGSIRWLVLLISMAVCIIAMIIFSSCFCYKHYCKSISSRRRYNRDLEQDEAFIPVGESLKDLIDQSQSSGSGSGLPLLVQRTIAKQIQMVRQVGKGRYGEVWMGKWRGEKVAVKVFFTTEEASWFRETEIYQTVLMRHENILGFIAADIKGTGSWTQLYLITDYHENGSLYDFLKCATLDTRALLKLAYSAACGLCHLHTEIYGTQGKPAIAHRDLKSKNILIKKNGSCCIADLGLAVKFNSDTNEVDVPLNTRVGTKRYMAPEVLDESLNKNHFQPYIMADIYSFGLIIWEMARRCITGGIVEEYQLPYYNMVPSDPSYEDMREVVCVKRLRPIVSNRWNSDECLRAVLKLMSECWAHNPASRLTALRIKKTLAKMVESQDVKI
Sequence of UniProt P29323 (whole entry, looked up): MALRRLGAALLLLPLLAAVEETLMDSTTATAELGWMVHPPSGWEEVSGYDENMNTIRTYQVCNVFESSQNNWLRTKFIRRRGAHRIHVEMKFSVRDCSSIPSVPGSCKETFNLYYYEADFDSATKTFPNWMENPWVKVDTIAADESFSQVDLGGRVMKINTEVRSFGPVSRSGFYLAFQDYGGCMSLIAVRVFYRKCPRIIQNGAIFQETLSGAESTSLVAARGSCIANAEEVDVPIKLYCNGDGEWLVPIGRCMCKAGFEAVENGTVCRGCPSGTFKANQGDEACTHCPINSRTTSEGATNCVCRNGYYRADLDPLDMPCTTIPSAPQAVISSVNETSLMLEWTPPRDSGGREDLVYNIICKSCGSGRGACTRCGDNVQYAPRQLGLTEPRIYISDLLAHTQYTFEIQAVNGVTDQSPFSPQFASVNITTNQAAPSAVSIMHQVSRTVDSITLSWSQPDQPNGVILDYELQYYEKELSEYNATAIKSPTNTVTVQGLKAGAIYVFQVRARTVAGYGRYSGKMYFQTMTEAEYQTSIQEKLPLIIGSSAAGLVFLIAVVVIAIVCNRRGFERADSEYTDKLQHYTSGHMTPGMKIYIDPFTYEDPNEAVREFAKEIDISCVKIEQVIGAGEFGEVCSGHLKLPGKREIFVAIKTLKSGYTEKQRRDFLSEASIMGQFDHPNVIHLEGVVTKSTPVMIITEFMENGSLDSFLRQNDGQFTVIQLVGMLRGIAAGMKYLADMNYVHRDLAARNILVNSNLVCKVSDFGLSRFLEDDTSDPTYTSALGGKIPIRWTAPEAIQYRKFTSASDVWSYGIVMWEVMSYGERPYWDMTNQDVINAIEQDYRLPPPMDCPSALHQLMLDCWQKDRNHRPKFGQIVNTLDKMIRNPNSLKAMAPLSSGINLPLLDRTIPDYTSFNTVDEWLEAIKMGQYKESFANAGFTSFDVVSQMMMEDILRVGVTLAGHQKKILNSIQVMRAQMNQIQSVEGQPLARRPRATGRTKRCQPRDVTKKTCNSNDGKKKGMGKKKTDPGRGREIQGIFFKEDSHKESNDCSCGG
Sequence of UniProt P42684 (whole entry, looked up): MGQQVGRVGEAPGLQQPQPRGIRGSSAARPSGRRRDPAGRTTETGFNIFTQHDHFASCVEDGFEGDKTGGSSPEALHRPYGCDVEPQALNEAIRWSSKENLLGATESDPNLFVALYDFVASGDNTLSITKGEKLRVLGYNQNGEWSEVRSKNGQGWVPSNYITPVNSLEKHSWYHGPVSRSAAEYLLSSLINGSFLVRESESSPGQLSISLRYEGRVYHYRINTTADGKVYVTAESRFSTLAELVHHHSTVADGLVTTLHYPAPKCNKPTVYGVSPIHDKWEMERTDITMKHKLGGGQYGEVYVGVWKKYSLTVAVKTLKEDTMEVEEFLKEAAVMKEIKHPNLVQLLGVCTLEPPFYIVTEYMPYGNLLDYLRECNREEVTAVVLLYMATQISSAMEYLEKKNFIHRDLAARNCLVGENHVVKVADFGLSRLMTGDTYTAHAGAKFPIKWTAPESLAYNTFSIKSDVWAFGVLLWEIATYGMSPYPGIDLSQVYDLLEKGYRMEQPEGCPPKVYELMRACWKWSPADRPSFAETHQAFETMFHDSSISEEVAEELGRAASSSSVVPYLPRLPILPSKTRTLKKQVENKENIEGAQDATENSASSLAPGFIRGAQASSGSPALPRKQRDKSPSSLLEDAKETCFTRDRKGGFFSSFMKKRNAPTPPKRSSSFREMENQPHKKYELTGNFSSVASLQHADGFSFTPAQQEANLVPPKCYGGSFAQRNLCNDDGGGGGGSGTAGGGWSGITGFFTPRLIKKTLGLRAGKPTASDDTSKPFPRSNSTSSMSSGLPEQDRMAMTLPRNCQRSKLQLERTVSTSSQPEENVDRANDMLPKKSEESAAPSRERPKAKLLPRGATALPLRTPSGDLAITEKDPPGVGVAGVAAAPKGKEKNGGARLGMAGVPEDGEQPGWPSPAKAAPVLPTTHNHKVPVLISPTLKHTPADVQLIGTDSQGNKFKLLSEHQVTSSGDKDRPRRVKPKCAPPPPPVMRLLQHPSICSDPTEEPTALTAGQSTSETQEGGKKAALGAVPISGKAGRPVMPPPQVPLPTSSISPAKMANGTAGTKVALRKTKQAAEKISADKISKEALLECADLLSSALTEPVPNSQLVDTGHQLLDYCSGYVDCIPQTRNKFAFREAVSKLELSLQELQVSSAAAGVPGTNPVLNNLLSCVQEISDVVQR
Sequence of UniProt P45985 (whole entry, looked up): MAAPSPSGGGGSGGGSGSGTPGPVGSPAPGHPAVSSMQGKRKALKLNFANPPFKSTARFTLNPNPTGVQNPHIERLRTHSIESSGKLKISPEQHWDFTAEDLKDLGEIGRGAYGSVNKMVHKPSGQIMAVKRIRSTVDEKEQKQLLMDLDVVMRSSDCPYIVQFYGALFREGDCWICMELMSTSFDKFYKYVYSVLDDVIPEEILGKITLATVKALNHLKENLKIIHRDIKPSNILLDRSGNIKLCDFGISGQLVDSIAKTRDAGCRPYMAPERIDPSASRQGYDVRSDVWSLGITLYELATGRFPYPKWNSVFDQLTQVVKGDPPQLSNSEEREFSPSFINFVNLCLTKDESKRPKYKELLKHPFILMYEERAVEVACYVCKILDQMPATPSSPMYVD
Sequence of UniProt P57059 (whole entry, looked up): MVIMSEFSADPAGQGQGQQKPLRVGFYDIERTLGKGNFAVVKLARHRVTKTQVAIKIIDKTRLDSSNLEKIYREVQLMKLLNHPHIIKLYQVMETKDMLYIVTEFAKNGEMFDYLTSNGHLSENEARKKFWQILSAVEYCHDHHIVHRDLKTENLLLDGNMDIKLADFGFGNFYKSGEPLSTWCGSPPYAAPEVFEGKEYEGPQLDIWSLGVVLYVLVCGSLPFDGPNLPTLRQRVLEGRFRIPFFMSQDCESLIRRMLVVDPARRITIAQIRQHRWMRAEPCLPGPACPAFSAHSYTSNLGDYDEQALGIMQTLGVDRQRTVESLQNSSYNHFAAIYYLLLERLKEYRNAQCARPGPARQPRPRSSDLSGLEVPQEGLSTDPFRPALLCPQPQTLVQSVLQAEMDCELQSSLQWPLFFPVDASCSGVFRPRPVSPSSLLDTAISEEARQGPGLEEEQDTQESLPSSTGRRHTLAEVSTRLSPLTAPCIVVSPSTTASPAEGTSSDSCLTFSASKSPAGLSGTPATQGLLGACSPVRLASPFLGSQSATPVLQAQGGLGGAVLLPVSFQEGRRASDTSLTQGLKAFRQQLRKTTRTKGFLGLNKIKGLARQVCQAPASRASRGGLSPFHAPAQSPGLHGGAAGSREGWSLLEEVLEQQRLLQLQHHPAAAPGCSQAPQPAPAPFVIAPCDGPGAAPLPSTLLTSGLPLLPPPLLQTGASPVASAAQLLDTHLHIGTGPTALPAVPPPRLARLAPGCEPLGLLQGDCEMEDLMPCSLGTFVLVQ

Block 1
Compound: CN(C)C(=O)Cn1cc(-c2nc([C@@](C)(c3ccc(-c4cnc(N)nc4)cc3)C3CC3)no2)cn1
Concentration: 1 µM
target	test	remaining binding [%]
STE20/SPS1-related proline-alanine-rich protein kinase (STK39, Homo sapiens, UniProt Q9UEW8)	cell-free assay, competition with immobilised ligand	81
Receptor-type tyrosine-protein kinase FLT3 (FLT3, Homo sapiens, UniProt P36888, D835V)	cell-free assay, competition with immobilised ligand	72
Tyrosine-protein kinase Fer (FER, Homo sapiens, UniProt P16591)	cell-free assay, competition with immobilised ligand	94
Activin receptor type-2A (ACVR2A, Homo sapiens, UniProt P27037)	cell-free assay, competition with immobilised ligand	81
Serine/threonine-protein kinase Nek4 (NEK4, Homo sapiens, UniProt P51957)	cell-free assay, competition with immobilised ligand	88
Epidermal growth factor receptor (EGFR, Homo sapiens, UniProt P00533, del747-752/P753S)	cell-free assay, competition with immobilised ligand	75
Serine/threonine-protein kinase DCLK2 (DCLK2, Homo sapiens, UniProt Q8N568)	cell-free assay, competition with immobilised ligand	91
Serine/threonine-protein kinase SIK1 (SIK1, Homo sapiens, UniProt P57059)	competition binding	52
Myosin-IIIa (MYO3A, Homo sapiens, UniProt Q8NEV4)	binding, competition with immobilised ligand	100
Interleukin-1 receptor-associated kinase 3 (IRAK3, Homo sapiens, UniProt Q9Y616)	cell-free assay, competition with immobilised ligand	100
Ribosomal protein S6 kinase alpha-3, C-terminal kinase domain (RPS6KA3, Homo sapiens, UniProt P51812)	cell-free assay, competition with immobilised ligand	100
Casein kinase I isoform epsilon (CSNK1E, Homo sapiens, UniProt P49674)	cell-free assay, competition with immobilised ligand	97
Receptor-type tyrosine-protein kinase FLT3 (FLT3, Homo sapiens, UniProt P36888, ITD)	cell-free assay, competition with immobilised ligand	100
Calcium/calmodulin-dependent protein kinase kinase 2 (CAMKK2, Homo sapiens, UniProt Q96RR4)	cell-free assay, competition with immobilised ligand	100
Wee1-like protein kinase 2 (WEE2, Homo sapiens, UniProt P0C1S8)	cell-free assay, competition with immobilised ligand	100
Ephrin type-B receptor 2 (EPHB2, Homo sapiens, UniProt P29323)	cell-free assay, competition with immobilised ligand	87
Dual specificity protein kinase CLK2 (CLK2, Homo sapiens, UniProt P49760)	cell-free assay, competition with immobilised ligand	96
Tyrosine-protein kinase ABL2 (ABL2, Homo sapiens, UniProt P42684)	cell-free assay, competition with immobilised ligand	100
Proto-oncogene tyrosine-protein kinase receptor Ret (RET, Homo sapiens, UniProt P07949, M918T)	cell-free assay, competition with immobilised ligand	83
cAMP-dependent protein kinase catalytic subunit PRKX (PRKX, Homo sapiens, UniProt P51817)	cell-free assay, competition with immobilised ligand	100
Tyrosine-protein kinase ABL1, phosphorylated (ABL1, Homo sapiens, UniProt P00519, Y253F)	cell-free assay, competition with immobilised ligand	76
Serine/threonine-protein kinase RIO3 (RIOK3, Homo sapiens, UniProt O14730)	cell-free assay, competition with immobilised ligand	100
Calcium/calmodulin-dependent protein kinase type IV (CAMK4, Homo sapiens, UniProt Q16566)	cell-free assay, competition with immobilised ligand	83
Phosphatidylinositol 3-kinase catalytic subunit type 3 (PIK3C3, Homo sapiens, UniProt Q8NEB9)	cell-free assay, competition with immobilised ligand	89
Interferon-induced, double-stranded RNA-activated protein kinase (EIF2AK2, Homo sapiens, UniProt P19525)	cell-free assay, competition with immobilised ligand	100

Block 2
Organism: Sarcocystis neurona
Read-out: parasite growth
Concentration: 10 µM
Time: 96 h
Reference: untreated
SMILES	log2 fold change
C[C@]12C=CC(=O)C=C1CC[C@@H]1[C@@H]2[C@@H](O)C[C@@]2(C)[C@H]1CC[C@]2(O)C(=O)CO	0.3
CO[C@H]1O[C@@H]2O[C@@]3(C)CC[C@H]4[C@H](C)CC[C@@H]([C@H]1C)[C@@]24OO3	-1.42
CCCCC1=NC2(CCCC2)C(=O)N1Cc1ccc(-c2ccccc2-c2nnn[nH]2)cc1	-0.06
CC(CCc1ccccc1)NCC(O)c1ccc(O)c(C(N)=O)c1 (centres unmarked)	0.38
CC1=C(CC(=O)O)c2cc(F)ccc2/C1=C\c1ccc([S+](C)[O-])cc1 (centres unmarked)	0.4
OC(CCN1CCCC1)(c1ccccc1)C1CCCCC1 (centres unmarked)	-0.12
CSc1nc2cc(Cl)c(Oc3cccc(Cl)c3Cl)cc2[nH]1	-0.19
CCOC(=O)[C@H](CCc1ccccc1)N[C@@H](C)C(=O)N1Cc2ccccc2C[C@H]1C(=O)O	0.37
CC(=O)OCC(=O)[C@@]1(O)CC[C@H]2[C@@H]3CCC4=CC(=O)CC[C@]4(C)[C@H]3[C@@H](O)C[C@@]21C	-0.08
COc1cc(-c2ccc(=O)[nH]n2)ccc1OC(F)F	0.55
COC1=CC(=O)C[C@@H](C)[C@]12Oc1c(Cl)c(OC)cc(OC)c1C2=O	0.54
C[n+]1ccccc1/C=N/O	0.37
CC(C)(C(=O)O)c1ccc(C(O)CCCN2CCC(C(O)(c3ccccc3)c3ccccc3)CC2)cc1 (centres unmarked)	0.36

Block 3
Target: panel of 300 human kinases
Concentration: 0.5 µM
Direction: higher = more selective
Structure (SMILES)	Gini score
COc1ccc(C(=O)Nc2sc3c(c2C(N)=O)CCCC3)cc1OC	0.67
O=C(Nc1cccc(Nc2cc(Nc3cccc(C(F)(F)F)c3)ncn2)c1)C1CC1	0.78
COc1cc2c(Nc3ccc(Br)cc3F)ncnc2cc1OCC1CCN(C)CC1	0.75
O=C1NC(=O)C(c2cn(CCCO)c3ncccc23)=C1c1cnccn1	0.63
c1cc(-c2cnn3cc(-c4ccc(OCCN5CCCCC5)cc4)cnc23)ccn1	0.56
O=C(CCCc1ccc(-c2ccccc2F)cc1)Nc1ccc(O)cc1	0.71
CN(C)c1ccc(C=C2C(=O)Nc3ccccc32)cc1	0.72
COc1cc2ncnc(Nc3ccc(Oc4ccccc4)cc3)c2cc1OC	0.78
O=S(=O)(c1cccc2cnccc12)N1CCCNCC1	0.63
CNc1cc2c(Nc3cccc(Br)c3)ncnc2cn1	0.6
CC[C@H](CO)Nc1nc(NCc2ccccc2)c2ncn(C(C)C)c2n1	0.7

Block 4
Compound: CN1CCN(C(=O)c2ccc(NC(=O)Nc3ccc(N(C)c4ccnc(Nc5ccc(CS(C)(=O)=O)cc5)n4)cc3)cc2)CC1
Read-out: binding
Concentration: 1 µM
target	test	remaining binding
Myosin light chain kinase 2, skeletal/cardiac muscle (MYLK2, Homo sapiens, UniProt Q9H1R3)	competition with immobilised ligand	36%
Cyclin-dependent kinase 2 homolog (CRK2, Plasmodium falciparum, UniProt P61075)	–	95%
Bone morphogenetic protein receptor type-1A (BMPR1A, Homo sapiens, UniProt P36894)	competition with immobilised ligand	32%
Dual specificity mitogen-activated protein kinase kinase 1 (MAP2K1, Homo sapiens, UniProt Q02750)	competition with immobilised ligand	33%
TGF-beta receptor type-2 (TGFBR2, Homo sapiens, UniProt P37173)	competition with immobilised ligand	26%
STE20/SPS1-related proline-alanine-rich protein kinase (STK39, Homo sapiens, UniProt Q9UEW8)	–	79%
Phosphatidylinositol 4,5-bisphosphate 3-kinase catalytic subunit alpha isoform (PIK3CA, Homo sapiens, UniProt P42336, E545A)	–	100%
SRSF protein kinase 1 (SRPK1, Homo sapiens, UniProt Q96SB4)	–	2.3%
Mitogen-activated protein kinase kinase kinase 20 (MAP3K20, Homo sapiens, UniProt Q9NYL2)	competition with immobilised ligand	86%
Serine/threonine-protein kinase Sgk3 (SGK3, Homo sapiens, UniProt Q96BR1)	–	79%
Serine/threonine-protein kinase PLK2 (PLK2, Homo sapiens, UniProt Q9NYY3)	–	100%
Dual specificity mitogen-activated protein kinase kinase 4 (MAP2K4, Homo sapiens, UniProt P45985)	–	6%
Calcium-dependent protein kinase 1 (CDPK1, Plasmodium falciparum, UniProt P62344)	–	71%

For quick reference, copied from above (block 2):
SMILES	log2 fold change
CSc1nc2cc(Cl)c(Oc3cccc(Cl)c3Cl)cc2[nH]1	-0.19
OC(CCN1CCCC1)(c1ccccc1)C1CCCCC1 (centres unmarked)	-0.12
CO[C@H]1O[C@@H]2O[C@@]3(C)CC[C@H]4[C@H](C)CC[C@@H]([C@H]1C)[C@@]24OO3	-1.42
COC1=CC(=O)C[C@@H](C)[C@]12Oc1c(Cl)c(OC)cc(OC)c1C2=O	0.54
CC1=C(CC(=O)O)c2cc(F)ccc2/C1=C\c1ccc([S+](C)[O-])cc1 (centres unmarked)	0.4
CCOC(=O)[C@H](CCc1ccccc1)N[C@@H](C)C(=O)N1Cc2ccccc2C[C@H]1C(=O)O	0.37
CC(C)(C(=O)O)c1ccc(C(O)CCCN2CCC(C(O)(c3ccccc3)c3ccccc3)CC2)cc1 (centres unmarked)	0.36
C[n+]1ccccc1/C=N/O	0.37
COc1cc(-c2ccc(=O)[nH]n2)ccc1OC(F)F	0.55
